Published values gathered from unrelated publications.
Parts stem from different laboratories: compare values within a part only.

Series 1
Target: RING finger protein unkempt homolog, zinc fingers 1-6, GST-SBP tag (UNK, Homo sapiens, UniProt Q9C0B0, residues 30-357)
UniProt Q9C0B0, sequence (30-357, looked up): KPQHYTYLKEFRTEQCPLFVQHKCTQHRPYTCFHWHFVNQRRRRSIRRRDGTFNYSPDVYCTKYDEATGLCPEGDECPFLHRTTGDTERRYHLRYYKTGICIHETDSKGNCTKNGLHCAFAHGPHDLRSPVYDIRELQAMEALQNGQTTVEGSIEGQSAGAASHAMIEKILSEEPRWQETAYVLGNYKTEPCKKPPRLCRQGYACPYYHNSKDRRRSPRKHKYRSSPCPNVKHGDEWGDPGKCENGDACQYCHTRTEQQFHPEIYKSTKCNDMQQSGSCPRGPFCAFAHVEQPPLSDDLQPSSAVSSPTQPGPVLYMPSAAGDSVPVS
Technique: RNA Bind-n-Seq
Molecule type: RNA
Sample: in vitro
Tested at: not given
Setting: RNA with constant flanks, human and mouse sites, ends assumed
Baseline: input RNA pool
Reading: higher = stronger binding
Quantity: bound/input enrichment
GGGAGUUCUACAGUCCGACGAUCUGUAAAUUAUGUAAUGCAAAAUUUUUUUAAUCUUCGCCUUAAUACUUUUUUAUUUUGUUUUAUUUUGAAUGAUGAGCCUUCGUGCCCCCCCUUCCCCCUUUUUUGUCCCCCAACUUGAGACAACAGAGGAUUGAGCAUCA: 6.98 ratio
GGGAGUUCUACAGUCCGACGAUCUUAAAUAUCUCUGGCUCAAGUGUUCACCCAGUAAAAGAAAGAUCCAGAAAGCACUGUUUUUAGCAUUACGUAUCUGUGUGUUACUGCUGUGUUAUUUACACUGUUUUGUAUUGUACAAUACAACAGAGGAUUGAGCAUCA: 0.113 ratio
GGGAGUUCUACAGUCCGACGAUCAAGAGGGCGAAUAUUCGCCUCCCACCUGAAGUAAAUCGGAUUUUGUAUAUAAGGAAUUUGCCAUACAAAAUCACAGCAGAAGAAAUGUAUGAUAUAUUUGGGAAAUAUGGACCUAUUCGUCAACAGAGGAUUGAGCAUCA: 0.211 ratio
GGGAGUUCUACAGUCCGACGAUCAAGCGUGUUGAUAAUGGCUUCCUGCAAACGUCCGGUGGUGUUUUUUGUUUCUAAAUCAGGUCUUUUUUUAUGUUUUUCCCAUUUGCACCCUAAUUUGACAUCAAAUUUCCCCCCUCCUGUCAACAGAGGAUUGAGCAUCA: 0.617 ratio
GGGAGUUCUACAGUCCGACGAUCAUUACUCUAAUGGAGUACUAUUCCAAAGAAGCCCUAGGCGAUUCCAAGUCUAAGAAGUCAGUAGCUUAUAAUUACGCAUGCGUACUCACGCUGGUGGUGGCUCAGUCUUCCAGCGGUGUCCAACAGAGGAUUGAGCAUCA: 0.931 ratio
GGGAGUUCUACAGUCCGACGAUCGCAGCGUGUGUGCCAAAACUCCCAUUCUCCUACCCCACUCCACCUUUCCUAGUGCUGAGAAUCUAAAUGGUGCCAACCAACACUGGGCUGUCUAUCACCUGUAAAUAUGAACACAGUCCCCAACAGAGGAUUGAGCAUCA: 0.383 ratio
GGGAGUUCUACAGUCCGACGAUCCCGGCCCCAGUGCCAUCCAGAAGAAAUCCCCCUGGCGGCAAGUCCAGCCUCGUCUUGGGUUAGCUCUGACUGUCCUGAACGCUGUCGUUCUGUCUGUUUCCUCCAUGCUUGUGAACUGCACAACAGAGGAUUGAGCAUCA: 0.15 ratio
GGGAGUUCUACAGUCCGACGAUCUGUGACAAGCUUUAUACUUGCCGCUUGUGUCAUGAUAACAAUGAAGAUCAUCAACUAGAUCGCUUUAAAGUGAAGGAAGUGCAGUGCAUAAACUGUGAAAAAAUUCAACAUGCCCAACAGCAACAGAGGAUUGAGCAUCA: 0.137 ratio

Series 2
Target: RNA binding protein fox-1 homolog 2, RRM domain, GST-SBP tag (RBFOX2, Homo sapiens, UniProt O43251-10, residues 100-194)
Technique: RNA Bind-n-Seq
Molecule type: RNA
Sample: in vitro
Tested at: 365 nM
Setting: natural RNA segment, single round, ends assumed
Baseline: no-protein control
Reading: higher = stronger binding
Quantity: RBNS enrichment (R)
Target sequence (chain): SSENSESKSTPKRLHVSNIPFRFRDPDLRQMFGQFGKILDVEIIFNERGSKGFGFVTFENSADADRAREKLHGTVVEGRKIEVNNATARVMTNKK
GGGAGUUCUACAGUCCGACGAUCGUAAUUUUACUCUGACCUGCCGCAGUCACCUCUCACUUAUCUCUUCCACGUACUGCACGGUCGUAUUUCAUGAGCUUUCUGUCCAUAGCACAGAAACAGAGCAGAAAGUAUGGAAUUCUCGGGUGCCAA: 1.02
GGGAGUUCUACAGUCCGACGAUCAAGGACCAUUGGAAAACACAGAUUAUUUUAACGUUAUAAAAUUCACAUCAGGAGCAAAAUCACAGAUAUGAACUUAAUAAAAAUAAUGUUAUGGUUGGAGGUCACCACAAUGGAAUUCUCGGGUGCCAA: 0.248
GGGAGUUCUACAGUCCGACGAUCGAAAGAGACAGAGGCAAUGAGAGAGACAGACAUGCAGGCAGGCCGACAGCUCUGCAUGUACUUGUGUUUUACGGCCUCAAGCAGAAUAAGGGACCUCCUCCUUAUUUCUGUGGAAUUCUCGGGUGCCAA: 0.495
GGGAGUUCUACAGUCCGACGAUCUUGUGGUAGAAGGGCAGGAGGCCCCAAGGUUGGAAAUAAGAGGGUUCCCACCCAGAACCCUUCUUGUGAGAGAUGCGCACUUUAAAGGGUGAUUUUGUUCCAGAUGUCUAUGGAAUUCUCGGGUGCCAA: 1.15
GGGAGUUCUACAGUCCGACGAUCAAGAGUAUUUAAAGAAAUAAUUUGGAUUGCUUUUGUUUUUUGUUUCCUUUUUUUUAACCAUCUGAUACUAAGAAGAUGAAUUUGCACAGAUUUCUCUGCAUAAUUUCUCAUGGAAUUCUCGGGUGCCAA: 1.01
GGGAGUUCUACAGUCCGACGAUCCUCCGCAAGCCUCCUGCAGCGCCCGCCUGCCAAUGUGAGGCUGGCACCAGGCUGCAGCCUCCCCAAUCCCAGCCCACUUUGCUGUGUCUCUGGCGGGCUGUCCUCCUUGGUGGAAUUCUCGGGUGCCAA: 0.329
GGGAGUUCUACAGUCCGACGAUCUUUCUAGUUCAAGCCCACAGCCAGCAACAAGCAACAAAGUGUCUUAGAAUAGGACUGGUUUUGUUUACCUCACCUAUGAGGUUGGCAGUAGCUCCCAACCCAUUUCACAAUGGAAUUCUCGGGUGCCAA: 0.252
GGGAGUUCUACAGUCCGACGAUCCUCAGCCUGCCUGAAGAGAGGAAACUGGCGAUCUCCCAGGGCUCUCUGGACCAUACGCGGAGGAGUUUUCUGUGUGGUCUCCAGCUCCUCUCCAGACACAGAGACAUGGGUGGAAUUCUCGGGUGCCAA: 0.415

Series 3
Target: Interferon regulatory factor 5, full length, phosphomimetic (IRF5, Homo sapiens, UniProt Q13568-2, residues 1-514, S451D/S453D/S456D/S462D)
Technique: protein-binding microarray
Molecule type: double-stranded DNA, one strand shown
Sample: in vitro
Tested at: 940 nM top
Setting: 60-bp whole probe
Together with: salmon DNA 0.4 mg/ml
Baseline: random background probes
Reading: higher = stronger binding
Quantity: fitted relative affinity
Shared flanks, not repeated: GCCTAGCAC … GTCTTGATTCGCTTGACGCTGCTG
GACGCACTGGACTATCGGGACGTGCTA: -0.266 z-score
GACGGACTGCTTATCCTTACGTGCTAG: -0.259 z-score
TTCTCTTTCCTTCTTGATGCGTGCTAG: 1.98 z-score
GACGATTTCAGTTCAGAGACGTGCTAG: 0.538 z-score
GAGGGTTTCCTACTGCTGACGTGCTAG: 0.444 z-score
AAACTCGTGTTTTTCTCCTAGTGCTAG: -0.0782 z-score
GGGCCTAGCCATTATGAGTCTGTGCTA: -0.187 z-score
GACGATCTCGGTATCGAGACGTGCTAG: 2.72 z-score
TCACTTTTTTTTCTTTAACTGTGCTAG: 2.02 z-score
GAGGATCTCAGTATCGAGACGTGCTAG: 1.59 z-score
TTAGGTATCGACACTGGGTAAGTGCTA: 4.72 z-score
CCCTTTCTCTCTGTGACACAGTGCTAG: 2.13 z-score
TTTAAGCTCCTATCTTATGATGTGCTA: 0.0793 z-score
TCAAGGCTGGTCTCTAACACTGTGCTA: -0.419 z-score
TTAGGTTTCGGTATCGGTTGGTGCTAG: 15.2 z-score
TGATCTCTGGTCTTTGTCAGGTGCTAG: 0.49 z-score
TTAGGTATCGGGTTTAGGTTAGTGCTA: 5.52 z-score
TCAAATTTCCATTTTCTACTGTGCTAG: 0.533 z-score
TTAGGTCTCCTTTTCATTTAGTGCTAG: 0.795 z-score

Series 4
Target: Histone acetyltransferase KAT6A, both winged helices, GST fusion (KAT6A, Homo sapiens, UniProt Q92794, residues 1-181)
Technique: protein binding microarray
Molecule type: double-stranded DNA, one strand shown
Sample: in vitro
Tested at: not given
Setting: 8-mer, flanks averaged, mean of 2 arrays, mostly near background
Baseline: not given
Reading: higher = stronger binding
Quantity: E-score
Target sequence (chain): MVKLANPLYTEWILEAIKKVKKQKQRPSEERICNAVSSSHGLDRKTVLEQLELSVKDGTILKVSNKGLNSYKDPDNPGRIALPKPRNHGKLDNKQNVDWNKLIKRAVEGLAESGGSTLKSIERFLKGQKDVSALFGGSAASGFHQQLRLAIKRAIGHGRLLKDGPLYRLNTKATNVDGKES
AAATGTCA: 0.0188
GCTACAGA: -0.195
GAGGACCC: -0.0257
AATTTGAC: -0.0669
GACACGCC: 0.123
AGAAAGCT: -0.0342
AATACAGA: -0.0798
ACCCGGCT: 0.181
AAAAGTAT: -0.00203
CTTATGCA: -0.155
TAAAGCGA: 0.071
GCCGGTAC: 0.202
CTTATCGC: 0.0999
TCCCGTAA: 0.131
GACAGTCA: 0.0506
AGGTTGAC: -0.14
GCGTTATA: 0.0319
ACTGTACC: 0.00458
CTTTTAGC: 0.0845
GAATACCC: 0.00844
CAAGTACC: -0.0723
AAATCCGT: 0.0929
ACGGTTGA: -0.0158
CTTTTATC: -0.067
ACTTTTAC: 0.00169

Some of these lines once more (series 1):
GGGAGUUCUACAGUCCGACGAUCUGUGACAAGCUUUAUACUUGCCGCUUGUGUCAUGAUAACAAUGAAGAUCAUCAACUAGAUCGCUUUAAAGUGAAGGAAGUGCAGUGCAUAAACUGUGAAAAAAUUCAACAUGCCCAACAGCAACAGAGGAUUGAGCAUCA: 0.137 ratio
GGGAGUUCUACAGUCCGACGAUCAUUACUCUAAUGGAGUACUAUUCCAAAGAAGCCCUAGGCGAUUCCAAGUCUAAGAAGUCAGUAGCUUAUAAUUACGCAUGCGUACUCACGCUGGUGGUGGCUCAGUCUUCCAGCGGUGUCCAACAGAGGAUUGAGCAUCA: 0.931 ratio
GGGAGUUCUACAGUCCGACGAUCUUAAAUAUCUCUGGCUCAAGUGUUCACCCAGUAAAAGAAAGAUCCAGAAAGCACUGUUUUUAGCAUUACGUAUCUGUGUGUUACUGCUGUGUUAUUUACACUGUUUUGUAUUGUACAAUACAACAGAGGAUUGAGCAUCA: 0.113 ratio
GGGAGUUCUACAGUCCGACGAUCUGUAAAUUAUGUAAUGCAAAAUUUUUUUAAUCUUCGCCUUAAUACUUUUUUAUUUUGUUUUAUUUUGAAUGAUGAGCCUUCGUGCCCCCCCUUCCCCCUUUUUUGUCCCCCAACUUGAGACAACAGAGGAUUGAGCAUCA: 6.98 ratio
